Measurements pooled from the literature.
Each numbered part is a random draw from the data of one study; scales do not carry over between parts.
Sequence of UniProt Q8IU85 (whole entry, looked up): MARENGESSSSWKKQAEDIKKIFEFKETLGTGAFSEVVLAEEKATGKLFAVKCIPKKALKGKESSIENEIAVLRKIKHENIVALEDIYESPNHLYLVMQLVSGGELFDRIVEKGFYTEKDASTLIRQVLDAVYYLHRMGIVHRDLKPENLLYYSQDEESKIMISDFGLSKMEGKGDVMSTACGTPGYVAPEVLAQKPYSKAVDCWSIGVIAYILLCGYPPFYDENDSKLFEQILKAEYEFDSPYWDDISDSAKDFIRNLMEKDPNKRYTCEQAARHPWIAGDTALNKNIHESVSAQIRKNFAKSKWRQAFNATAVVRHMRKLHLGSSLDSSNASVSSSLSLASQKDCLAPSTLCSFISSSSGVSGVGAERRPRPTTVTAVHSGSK
Sequence of UniProt P36507 (whole entry, looked up): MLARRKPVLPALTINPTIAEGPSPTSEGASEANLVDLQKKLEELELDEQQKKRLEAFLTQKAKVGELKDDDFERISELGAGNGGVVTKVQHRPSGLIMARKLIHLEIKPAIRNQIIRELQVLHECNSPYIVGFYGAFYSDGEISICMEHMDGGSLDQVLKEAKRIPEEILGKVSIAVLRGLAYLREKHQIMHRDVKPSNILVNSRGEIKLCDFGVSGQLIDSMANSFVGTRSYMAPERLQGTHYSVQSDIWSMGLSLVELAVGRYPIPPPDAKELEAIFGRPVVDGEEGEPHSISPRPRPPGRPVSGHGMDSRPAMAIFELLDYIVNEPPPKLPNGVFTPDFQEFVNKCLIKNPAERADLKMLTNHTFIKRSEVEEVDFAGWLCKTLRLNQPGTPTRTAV
Sequence of UniProt P15056 (whole entry, looked up): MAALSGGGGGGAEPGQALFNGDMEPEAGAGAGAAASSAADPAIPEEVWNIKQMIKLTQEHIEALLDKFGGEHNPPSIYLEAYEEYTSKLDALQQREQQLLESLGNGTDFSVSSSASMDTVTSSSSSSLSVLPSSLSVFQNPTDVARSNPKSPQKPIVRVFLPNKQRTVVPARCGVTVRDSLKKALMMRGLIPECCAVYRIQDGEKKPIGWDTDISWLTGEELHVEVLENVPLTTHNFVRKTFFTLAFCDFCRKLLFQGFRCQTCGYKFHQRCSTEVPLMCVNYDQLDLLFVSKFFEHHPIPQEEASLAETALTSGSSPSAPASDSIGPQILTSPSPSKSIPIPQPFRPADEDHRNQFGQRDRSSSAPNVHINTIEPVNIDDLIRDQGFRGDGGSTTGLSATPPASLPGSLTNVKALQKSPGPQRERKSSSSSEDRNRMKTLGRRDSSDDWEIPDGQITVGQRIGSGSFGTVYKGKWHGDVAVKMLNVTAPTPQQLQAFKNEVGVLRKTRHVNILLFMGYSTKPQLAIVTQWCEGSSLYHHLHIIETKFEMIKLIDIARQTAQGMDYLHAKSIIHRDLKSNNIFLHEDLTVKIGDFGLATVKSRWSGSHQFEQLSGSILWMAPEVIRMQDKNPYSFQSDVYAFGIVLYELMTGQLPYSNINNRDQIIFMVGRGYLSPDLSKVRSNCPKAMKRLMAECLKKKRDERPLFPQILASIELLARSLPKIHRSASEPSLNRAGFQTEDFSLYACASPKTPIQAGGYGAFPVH
Sequence of UniProt P16234 (whole entry, looked up): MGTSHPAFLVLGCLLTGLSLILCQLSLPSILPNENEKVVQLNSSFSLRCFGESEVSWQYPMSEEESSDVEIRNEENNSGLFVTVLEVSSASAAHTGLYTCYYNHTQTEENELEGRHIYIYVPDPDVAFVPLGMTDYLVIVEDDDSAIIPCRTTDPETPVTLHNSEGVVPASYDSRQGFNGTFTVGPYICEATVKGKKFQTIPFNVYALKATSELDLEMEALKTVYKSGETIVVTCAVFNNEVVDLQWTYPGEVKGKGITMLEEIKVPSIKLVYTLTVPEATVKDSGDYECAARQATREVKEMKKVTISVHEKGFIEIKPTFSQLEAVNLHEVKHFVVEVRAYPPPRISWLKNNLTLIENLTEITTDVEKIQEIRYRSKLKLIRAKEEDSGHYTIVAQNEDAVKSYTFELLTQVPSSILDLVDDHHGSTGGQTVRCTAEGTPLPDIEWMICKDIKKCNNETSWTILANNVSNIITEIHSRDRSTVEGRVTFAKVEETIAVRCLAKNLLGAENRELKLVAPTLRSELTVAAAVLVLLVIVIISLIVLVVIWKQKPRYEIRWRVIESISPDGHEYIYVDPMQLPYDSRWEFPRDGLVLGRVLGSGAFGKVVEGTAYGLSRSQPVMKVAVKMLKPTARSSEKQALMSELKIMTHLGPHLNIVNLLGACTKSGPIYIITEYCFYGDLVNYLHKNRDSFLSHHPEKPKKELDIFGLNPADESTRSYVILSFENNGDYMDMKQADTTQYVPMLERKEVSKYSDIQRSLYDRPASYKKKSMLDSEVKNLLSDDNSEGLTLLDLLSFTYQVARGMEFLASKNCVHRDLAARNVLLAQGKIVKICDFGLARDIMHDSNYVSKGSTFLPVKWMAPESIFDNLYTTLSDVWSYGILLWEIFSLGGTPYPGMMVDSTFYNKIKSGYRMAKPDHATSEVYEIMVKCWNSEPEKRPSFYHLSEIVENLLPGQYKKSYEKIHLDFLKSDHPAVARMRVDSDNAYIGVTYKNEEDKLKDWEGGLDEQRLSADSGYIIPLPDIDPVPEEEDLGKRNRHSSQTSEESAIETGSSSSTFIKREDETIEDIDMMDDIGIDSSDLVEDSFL
Sequence of UniProt Q15569 (whole entry, looked up): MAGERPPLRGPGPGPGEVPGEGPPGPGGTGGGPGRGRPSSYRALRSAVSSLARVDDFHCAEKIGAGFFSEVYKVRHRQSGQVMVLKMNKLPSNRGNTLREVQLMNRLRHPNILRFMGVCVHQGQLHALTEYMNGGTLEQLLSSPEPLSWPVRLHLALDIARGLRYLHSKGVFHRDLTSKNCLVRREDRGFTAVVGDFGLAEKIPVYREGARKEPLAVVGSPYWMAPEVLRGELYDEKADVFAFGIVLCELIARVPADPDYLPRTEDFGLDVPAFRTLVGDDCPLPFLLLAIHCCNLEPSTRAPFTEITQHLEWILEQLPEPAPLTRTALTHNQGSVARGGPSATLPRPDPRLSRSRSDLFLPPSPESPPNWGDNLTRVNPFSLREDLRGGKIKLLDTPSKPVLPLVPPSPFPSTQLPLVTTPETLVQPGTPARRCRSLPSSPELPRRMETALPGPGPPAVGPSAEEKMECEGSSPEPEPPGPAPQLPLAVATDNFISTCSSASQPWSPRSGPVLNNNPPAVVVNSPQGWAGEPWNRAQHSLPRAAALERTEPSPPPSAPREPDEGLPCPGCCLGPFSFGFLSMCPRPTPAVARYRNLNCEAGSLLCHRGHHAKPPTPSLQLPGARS
Sequence of UniProt O00444 (whole entry, looked up): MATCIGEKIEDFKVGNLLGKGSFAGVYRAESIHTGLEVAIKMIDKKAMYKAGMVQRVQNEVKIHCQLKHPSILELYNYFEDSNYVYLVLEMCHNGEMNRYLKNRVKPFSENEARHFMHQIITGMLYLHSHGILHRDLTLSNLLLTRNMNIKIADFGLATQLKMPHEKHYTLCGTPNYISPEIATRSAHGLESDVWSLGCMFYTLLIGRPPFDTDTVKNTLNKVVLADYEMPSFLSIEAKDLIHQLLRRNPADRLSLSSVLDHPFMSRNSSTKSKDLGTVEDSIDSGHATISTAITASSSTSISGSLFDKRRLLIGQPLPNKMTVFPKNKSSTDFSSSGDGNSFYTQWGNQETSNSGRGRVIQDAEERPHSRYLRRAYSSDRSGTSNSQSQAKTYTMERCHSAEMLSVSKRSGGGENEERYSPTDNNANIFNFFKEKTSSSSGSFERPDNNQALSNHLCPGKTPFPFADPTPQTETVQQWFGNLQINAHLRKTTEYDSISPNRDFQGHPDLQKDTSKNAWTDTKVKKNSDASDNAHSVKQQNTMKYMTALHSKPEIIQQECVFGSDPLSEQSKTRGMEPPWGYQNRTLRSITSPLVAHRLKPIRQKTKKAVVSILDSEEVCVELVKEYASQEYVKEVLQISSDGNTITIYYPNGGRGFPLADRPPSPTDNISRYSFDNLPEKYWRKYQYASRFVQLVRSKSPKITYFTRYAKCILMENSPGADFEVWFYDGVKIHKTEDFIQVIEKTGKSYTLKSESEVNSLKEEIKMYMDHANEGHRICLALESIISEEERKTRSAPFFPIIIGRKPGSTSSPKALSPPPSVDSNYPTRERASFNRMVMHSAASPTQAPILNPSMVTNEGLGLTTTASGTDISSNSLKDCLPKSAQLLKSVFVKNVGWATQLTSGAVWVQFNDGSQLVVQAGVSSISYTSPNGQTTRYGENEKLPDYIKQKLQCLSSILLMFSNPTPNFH

Sample 1
Compound: FC(F)(F)c1ccc2c(c1)nc(-c1cccnc1)n2C1CC1
Tested at: 1 µM
For ULK1 (Homo sapiens, UniProt O75385); cell-free assay, competition with immobilised ligand: remaining binding read 100%.
For ZAP70 (Homo sapiens, UniProt P43403); cell-free assay, competition with immobilised ligand: remaining binding read 100%.
For CAMK1D (Homo sapiens, UniProt Q8IU85); cell-free assay, competition with immobilised ligand: remaining binding read 100%.
It gave 100% for remaining binding (NUAK1 (Homo sapiens, UniProt O60285); cell-free assay, competition with immobilised ligand).
PLK4 (Homo sapiens, UniProt O00444); cell-free assay, competition with immobilised ligand — remaining binding: 78%.
HIPK4 (Homo sapiens, UniProt Q8NE63); cell-free assay, competition with immobilised ligand — remaining binding: 100%.
For TESK1 (Homo sapiens, UniProt Q15569); cell-free assay, competition with immobilised ligand: remaining binding read 100%.
CDC42BPG (Homo sapiens, UniProt Q6DT37); binder, KINOMEscan competition binding; reference: DMSO — remaining binding: 100%.

Sample 2
Compound: C=CC(=O)N1CCC[C@@H](n2nc(-c3ccc(Oc4ccccc4)cc3)c3c(N)ncnc32)C1
Mode: inhibitor
Tested at: 1 µM
Tyrosine-protein kinase ABL1, phosphorylated (ABL1, Homo sapiens, UniProt P00519, H396P) — inhibition: 45%.
For EPHA7 (Homo sapiens, UniProt Q15375); enzyme activity: inhibition read 7%.
It gave 15% for inhibition (CSNK1G2 (Homo sapiens, UniProt P78368)).
BRSK1 (Homo sapiens, UniProt Q8TDC3); enzyme activity — inhibition: 28%.
For MAP2K2 (Homo sapiens, UniProt P36507); enzyme activity: inhibition read 81%.
For PIK3C2B (Homo sapiens, UniProt O00750); enzyme activity: inhibition read 29%.
PDGFRA (Homo sapiens, UniProt P16234); enzyme activity — inhibition: 67%.
FLT3 (Homo sapiens, UniProt P36888, R834Q) — inhibition: 54%.

Sample 3
SMILES: CN1CCN(C(=O)c2ccc(NC(=O)Nc3ccc(N(C)c4ccnc(Nc5ccc(CS(C)(=O)=O)cc5)n4)cc3)cc2)CC1
Tested at: 1 µM
CAMK1D (Homo sapiens, UniProt Q8IU85); competitive binding panel; reference: vehicle — remaining binding: 98%.
The remaining binding was 100% (PIK3CA (Homo sapiens, UniProt P42336, E545A); competitive binding panel; reference: vehicle).
CDKL3 (Homo sapiens, UniProt Q8IVW4); competitive binding panel; reference: vehicle — remaining binding: 72%.
The remaining binding was 6.7% (TNK1 (Homo sapiens, UniProt Q13470); competitive binding panel; reference: vehicle).
BRAF (Homo sapiens, UniProt P15056); competitive binding panel; reference: vehicle — remaining binding: 89%.
It gave 77% for remaining binding (HIPK2 (Homo sapiens, UniProt Q9H2X6); competitive binding panel; reference: vehicle).
For SLK (Homo sapiens, UniProt Q9H2G2); competitive binding panel; reference: vehicle: remaining binding read 8.9%.
The remaining binding was 86% (MYLK3 (Homo sapiens, UniProt Q32MK0); competitive binding; MLCK).

Sample 4
Target: Interleukin-1 receptor-associated kinase 4 (IRAK4, Homo sapiens, UniProt Q9NWZ3)
Sequence of UniProt Q9NWZ3 (whole entry, looked up): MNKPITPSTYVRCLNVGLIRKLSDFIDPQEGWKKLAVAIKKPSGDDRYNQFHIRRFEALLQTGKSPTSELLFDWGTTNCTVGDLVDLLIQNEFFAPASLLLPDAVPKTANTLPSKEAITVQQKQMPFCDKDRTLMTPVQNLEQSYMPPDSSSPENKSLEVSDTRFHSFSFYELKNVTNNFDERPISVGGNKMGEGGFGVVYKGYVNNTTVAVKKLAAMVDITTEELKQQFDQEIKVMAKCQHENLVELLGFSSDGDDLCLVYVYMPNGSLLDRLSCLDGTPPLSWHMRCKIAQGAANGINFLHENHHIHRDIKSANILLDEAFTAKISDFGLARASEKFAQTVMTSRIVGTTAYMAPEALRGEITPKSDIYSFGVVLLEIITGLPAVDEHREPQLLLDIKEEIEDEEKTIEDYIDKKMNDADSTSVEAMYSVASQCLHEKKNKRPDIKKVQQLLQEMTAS
Observed: enzyme activity
Mode: inhibitor
Tested at: 0.5 µM
Reference: control
The remaining activity of c1ccc(-c2cnc(Nc3ccc(OCCN4CCCC4)cc3)s2)cc1 is reported as 86.1%.
For COc1cc2ncnc(Nc3cccc(Cl)c3)c2cc1OC, the remaining activity was 77.7%.
Ic1cccc(CSc2nnc(-c3ccncc3)o2)c1 gave a remaining activity of 105%.
With CCN(CC)CCNC(=O)c1c(C)[nH]c(/C=C2\C(=O)Nc3ccc(Cl)cc32)c1C the remaining activity was 22.7%.
CCN(CC)CCNC(=O)c1c(C)[nH]c(/C=C2\C(=O)Nc3ccc(F)cc32)c1C has a remaining activity of 27.4%.
O=C(Nc1cccc(Nc2nccc(Nc3cccc(C(F)(F)F)c3)n2)c1)C1CC1 gave a remaining activity of 146%.
For CN(C)C[C@H]1CCn2c(c(C3=C(c4cn(C)c5ccccc45)C(=O)NC3=O)c3ccccc32)C1, the remaining activity was 107%.
O=C1C(Cl)=C(N2C(=O)CCC2=O)C(=O)c2ccccc21 has a remaining activity of 89.1%.
For N#C/C(=C\c1ccc(O)c(O)c1)C(=O)NCc1ccccc1, the remaining activity was 93.7%.
Cc1nc2cc3nc(-c4cccs4)cnc3cc2n1C has a remaining activity of 201%.
The remaining activity of Nc1cccc(-c2cc3c(Oc4cccc(O)c4)ncnc3[nH]2)c1 is reported as 88.2%.
With C[C@@H]1CCN(C(=O)CC#N)C[C@@H]1N(C)c1ncnc2[nH]ccc12 the remaining activity was 88.5%.
Cc1cc2ncc(-c3ccccc3)nc2cc1C has a remaining activity of 93.1%.
Cc1cn(-c2cc(NC(=O)c3ccc(C)c(Nc4nccc(-c5cccnc5)n4)c3)cc(C(F)(F)F)c2)cn1 has a remaining activity of 80.2%.
The remaining activity of c1ccc(-c2[nH]ncc2-c2ccnc3ccccc23)nc1 is reported as 87.7%.
O=c1cc(-c2cccc3c2Sc2ccccc2S3)oc(N2CCOCC2)c1 has a remaining activity of 160%.
For N#Cc1c(NC(=O)c2cccc3ccccc23)sc2c1CCCC2, the remaining activity was 92.9%.
Cn1nc2c3c(cccc31)C(=O)c1ccccc1-2 has a remaining activity of 97.3%.
COc1cc2c(cc1OC)-c1[nH]nc(Nc3cccc(F)c3)c1C2 gave a remaining activity of 70%.
The remaining activity of CCN(CC)C(=O)c1ccc(Nc2nc(OCC3CCCCC3)c3[nH]cnc3n2)cc1 is reported as 92.4%.
COc1cc2ncnc(Nc3ccc(O)c(Br)c3)c2cc1OC gave a remaining activity of 91.1%.
The remaining activity of O=C(NC(NC(=S)Nc1ccc(F)c([N+](=O)[O-])c1)C(Cl)(Cl)Cl)C(c1ccccc1)c1ccccc1 (stereo not drawn) is reported as 191%.
The remaining activity of O=C1c2ccccc2-c2n[nH]c3cccc1c23 is reported as 95.7%.
The remaining activity of CCOc1nc(NC(=O)Cc2cc(OC)ccc2OC)cc(N)c1C#N is reported as 94.9%.

Some of these lines once more (sample 4):
With C[C@@H]1CCN(C(=O)CC#N)C[C@@H]1N(C)c1ncnc2[nH]ccc12 the remaining activity was 88.5%.
Cc1cc2ncc(-c3ccccc3)nc2cc1C has a remaining activity of 93.1%.
Cc1cn(-c2cc(NC(=O)c3ccc(C)c(Nc4nccc(-c5cccnc5)n4)c3)cc(C(F)(F)F)c2)cn1 has a remaining activity of 80.2%.
The remaining activity of c1ccc(-c2[nH]ncc2-c2ccnc3ccccc23)nc1 is reported as 87.7%.
O=c1cc(-c2cccc3c2Sc2ccccc2S3)oc(N2CCOCC2)c1 has a remaining activity of 160%.
